Measurements of several laboratories.
Each line is one published result; not all experiments were run side by side. “And” joins repeats or separate records; there may be more than shown. Numbers after ± are the reported error.
Chain of UniProt P09936 (whole entry, looked up): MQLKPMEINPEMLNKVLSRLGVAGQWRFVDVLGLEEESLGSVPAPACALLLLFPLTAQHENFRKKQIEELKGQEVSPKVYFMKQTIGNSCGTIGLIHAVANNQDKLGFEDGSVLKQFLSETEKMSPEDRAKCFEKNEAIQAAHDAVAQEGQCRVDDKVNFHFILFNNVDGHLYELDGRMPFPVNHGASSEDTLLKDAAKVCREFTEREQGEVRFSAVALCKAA

| Structure (SMILES) | tested on | test | system | conditions | scale | endpoint | result |
| --- | --- | --- | --- | --- | --- | --- | --- |
| COc1ccc(C[C@@H](C)[C@@H](C)Cc2ccc(OC)c(OC)c2)cc1OC |  |  | beagle dog male, plasma | oral, 100 mg/kg/day, day 1 |  | Cmax | 1610 ± 387 ng/mL |
| C=CCN1CC(=O)N2[C@@H](Cc3ccc(O)cc3F)C(=O)N(Cc3cccc(N4CC(N5CCN(CC)CC5)C4)n3)C[C@@H]2N1C(=O)NCc1ccccc1 |  |  | advanced solid tumour patients | oral, 120 mg twice daily, any grade, dose-escalation |  | treatment-related decreased appetite | 25% |
| COc1ccc(CNc2nc(-c3ccc(C(=O)O)cc3)nc3c2c2ccccc2n3C)cc1Cl |  |  | NSG mice | dose not given, day 10 of treatment |  | body weight | 21.6 g and 22.6 g and 23.1 g and 23.8 g |
| CCN1/C(=C/C(C)=O)Sc2ccc(F)cc21 |  |  | cynomolgus monkey | oral, 30 mg/kg, 6 h post-dose |  | QT interval | 278 ± 42 ms |
| CCN1CCN(Cc2ccc(NC(=O)c3ccc(C)c(NC(=O)c4cncc(-c5cccs5)c4)c3)cc2C(F)(F)F)CC1 |  |  | C57BL/6 mice, epithelial lining fluid | intraperitoneal, 20 mg/kg |  | AUC(0-inf) | 6540 ng·h/mL |
| O=C(CNc1ccc2ccccc2c1)N/N=C/c1ccc([N+](=O)[O-])o1 | Trypanosoma cruzi | reporter translation, Renilla luciferase mRNA translation | cell-free extract | 40 µM | relative to: DMSO | inhibition | -387% |
| COc1cc2c3c(n(CCCN4CCOCC4)c(=O)c2cc1OC)-c1cc2c(cc1C3=O)OCO2 |  |  | beagle dog, female, plasma | intravenous infusion, 10 mg/m^2, 1 h infusion, vehicle 1 |  | CL | 38.9 ± 6.3 L/h/m² |
| Cc1nn(C)cc1S(=O)(=O)NC(=O)c1ccc(-n2ccc(OCC(C)(C)C(F)(F)F)n2)nc1N1C[C@@H](C)CC1(C)C |  |  |  |  |  | pKa (acidic) | 5 |
| C=CC(=O)N(C)CCOc1c(N)ncnc1-c1cc(F)cc(NC(=O)c2ccc(C3CC3)cc2F)c1C |  |  | human | oral, 50 mg, day 3, arithmetic mean, given alone |  | AUC(0-last) per dose | 4.74 ng·h/mL/mg |
| Cc1nc(Nc2ncc(C(=O)Nc3c(C)cccc3Cl)s2)cc(N2CCN(CCO)CC2)n1 |  |  | human | oral, 100 mg |  | unrelated TEAEs | 0% |
| O=C(O)CCC(=O)O.[2H]C([2H])([2H])Oc1cc(C)c2[nH]ccc2c1CN1CC[C@@H](C2CC2)C[C@H]1c1ccc(C(=O)O)cc1 |  |  | healthy Chinese subjects | 600 mg, single ascending dose |  | TEAE decreased fibrinogen | 0% |
| Cc1ccc([C@@H]2O[C@H](CO)[C@@H](O)[C@H](O)[C@H]2O)cc1Cc1ccc(-c2ccc(F)cc2)s1 |  |  | Japanese type 2 diabetes patients | 400 mg, day 1, 24 h urine collection | relative to: baseline | urinary calcium excretion change | -37.9 mg |
| Cc1cc(CN)cc(C)c1NC(=O)c1ccc(-c2cc(Cl)ccc2Cl)o1 | Toxoplasma gondii | parasite growth, luciferase reporter | HFF, tachyzoite | 72 h |  | EC50 | 1.63 µM |
| O=C(Nc1nc2cccc(-c3ccc(CN4CCS(=O)(=O)CC4)cc3)n2n1)C1CC1 |  | measured: abdominal discomfort | rheumatoid arthritis patients | oral, 150 mg once daily, 4 weeks, any relatedness |  | patients with adverse event | 0% |
| CC1(C)CCC2=C(O1)c1ccccc1C(=O)C2=O | Toxoplasma gondii | parasite growth, luciferase reporter | HFF, tachyzoite | 72 h |  | EC50 | 6.73 µM |
| CN1C(=O)[C@@H](NC(=O)c2nnc(Cc3ccccc3)[nH]2)COc2cccnc21 |  | phase I single ascending dose | human, male and female | oral, 10 mg, fasted |  | participants with any TEAE | 50% |
| CCOc1c([C@H](C)n2nc(C)c3c(N)ncnc32)cc(Cl)c(F)c1[C@@H]1CNC(=O)C1 |  | ECG | previously treated B-cell malignancy patients | oral, 10 mg once daily, baseline below thresholds |  | observations with HR above 100 bpm | 0% |
| CC(=O)N(C)[C@H]1CCN(C(=O)c2cnc3c(c2)C[C@](C)(c2ccc(F)cc2)N3)C1 |  | measured: hay fever | human | oral, 30 mg once daily |  | adverse event duration | 2 days |
| C=C(F)C(=O)N1CCN(c2nc(OC[C@@H]3CCCN3C)nc3c2CCN(c2cccc4cccc(Cl)c24)C3)C[C@@H]1CC#N |  |  | healthy volunteers, plasma | oral, 400 mg twice daily |  | AUC(0-tau) | 12700 ng·h/mL |
| CC(=O)Oc1ccccc1C(=O)O |  |  | male Hartley guinea pigs, anaesthetized | intravenous, 1 mg/kg over 10 min, after infusion |  | mean blood pressure | 36 ± 0.1 mmHg |
| CNC(=O)c1ccc(-c2cnc3ncc(Cc4ccc5ncccc5c4)n3n2)cc1F |  | CTCAE v4.0, any causality | human cancer patients | oral, 600 mg twice daily, expansion, other tumours, RP2D |  | alkaline phosphatase increase incidence (all grades) | 0% |
| Cc1ccc(O)c(-n2nc3ccccc3n2)c1 |  |  | human aged 11-16 years | concentration not given, spray sunscreen, mean |  | daily dermal exposure dose | 774 ng/kg/day |
| CCO[C@H]1CCN(Cc2c(OC)cc(C)c3[nH]ccc23)[C@H](c2ccc(C(=O)O)cc2)C1 |  |  | PNH patients, active haemolysis | oral, 200 mg, 8 weeks, treatment |  | incidence of oropharyngeal pain | 0% |
| [H]/N=C(/N)c1ccc(NCc2nc3cc(C(=O)N(CCC(=O)O)c4ccccn4)ccc3n2C)cc1 |  |  | healthy human, plasma | oral, 75 mg dabigatran etexilate, alone, median |  | Tlast | 36 h |
| C[C@@H](Nc1cc(F)cc(F)c1)c1cc(C(=O)N(C)C)cc2c(=O)cc(N3CCOCC3)oc12 |  | measured: Chills | advanced solid tumour patients | oral, dose not given, dose expansion |  | patients discontinuing for AE | 0% |
| CN(C(=O)n1cnc(-c2ccc[n+]([O-])c2)c1)C1CCCCC1 |  |  | cynomolgus monkey, male, plasma | oral, 1.0 mg/kg |  | t1/2 | 2.4 h |

| Structure (SMILES) | tested on | test | system | conditions | scale | endpoint | result |
| --- | --- | --- | --- | --- | --- | --- | --- |
| COc1ccnc(C(=O)NC(CO)C(=O)O)c1O (racemic) |  |  | water/sediment | 20 °C, whole system, geometric mean, aerobic dark |  | DT50 | 49 days |
| Cc1c(-c2ccc(N3CCc4cccc(C(=O)Nc5nc6ccccc6s5)c4C3)nc2C(=O)O)cnn1CC12CC3(C)CC(C)(C1)CC(OCCNCC[C@H](O)CO)(C3)C2 |  |  | beagle dog, male, anaesthetised | intravenous infusion, 0.3 mg/kg/min, 75 min | relative to: vehicle | mean arterial pressure change | -28% |
| C=CC(=O)NC1CCN(c2ncc3ncnc(Nc4ccc(Oc5ccc6c(c5)ncn6C)c(C)c4)c3n2)CC1 |  |  | healthy male humans | oral, 240 mg |  | participants with headache TEAE | 25% |
| CC(F)(F)c1cc(F)ccc1-c1sc2cc(O)ccc2c1Oc1ccc(/C=C/C(=O)O)cc1 |  |  | human, serum | oral, 450 mg once daily, cycle 1 day 28, fasted, median |  | Tlast | 24 h |
| COc1cc(N2CCC3(CCN(C)CC3)CC2)ccc1Nc1ncc(Cl)c(Nc2ccccc2P(C)(C)=O)n1 |  | population PK model | human | oral, base structural model |  | Q/F | 16.2 L/h |
| Cc1noc(C)c1Cn1cc(N2C(=O)CN(Cc3cccc(O)c3)C2=O)cn1 |  |  | pooled rat liver microsomes Sprague-Dawley | 10 µM, 120 min, pH 7.4 |  | remaining parent | 105 % peak area |
| COc1cc(C(=O)NC2CCN(C)CC2)c(F)cc1Nc1ncc(C(F)(F)F)c(Oc2cccc3c2C(=O)N(C)C3)n1 |  |  | human patients, plasma | oral, 300 mg single dose, geometric mean |  | dose-normalised Cmax | 15.1 nmol/L per mg |
| C[C@@H]1COCCN1c1cc(C2([S@](C)(=N)=O)CC2)nc(-c2cc[nH]c3nccc2-3)n1 |  |  | Japanese advanced solid tumour patients | oral, 240 mg twice daily, CTCAE grade ≥3 |  | Vomiting incidence | 0% |
| CNCc1ccc(-c2[nH]c3cc(F)cc4c3c2CCNC4=O)cc1 |  |  | patients | oral, 600 mg twice daily, grade 4 |  | constipation incidence | 0% |
| COc1cc2[nH]c(C)c(-c3ccc(C(C)(C)C)cc3)c(=O)c2cc1Cl |  |  | PAMPA | pH 7.4 |  | Papp | < 5 ×10⁻⁶ cm/s |
| COc1ncc(-c2nc3c(n2C(C)C)[C@H](c2ccc(Cl)cc2)N(c2cc(Cl)cn(C)c2=O)C3=O)c(OC)n1 |  |  | human patients, plasma | oral, 30 mg, low-dose arm, cycle 1 day 8 |  | median Tmax | 4 h |
| NC1(C(=O)N[C@@H](CCO)c2ccc(Cl)cc2)CCN(c2nc[nH]c3nccc2-3)CC1 |  |  | metastatic CRPC patients | 480 mg b.i.d., grade 3 to 4, treatment-related, together with: enzalutamide 160 mg daily |  | incidence of Diarrhoea | 20% |
| Cc1ccc(Sc2ccccc2N2CCNCC2)c(C)c1 |  | any TEAE | healthy adult men | oral, 10 mg single dose, 8 nights, fasted |  | adverse event incidence | 5.3% |
| N#C[C@@]12C[C@@H]1[C@@H](n1cnc3c(N[C@@H](C4CCC4)C4CC4)nc(I)nc31)[C@H](O)[C@@H]2O |  |  | Wistar rat, male, plasma | oral, 3.0 mg/kg |  | Vd | 177 L/kg |
| O=C(N[C@H](Cc1c[nH]c2ccccc12)C(=O)Nc1ccncc1)c1ccc(-c2ccc(F)c(Cl)c2)cc1F |  |  | Swiss Webster mouse, female, brain | oral, 50 mg/kg, 2 h, 20% HPβCD vehicle |  | concentration | 230 nM |
| CC(C)(C)c1ccc(O)c(CN(Cc2cc(C(C)(C)C)ccc2O)C2CCC(NC(N)=O)CC2)c1 (stereo not drawn) |  |  | C57BL/6 mice, male, plasma | intraperitoneal, 10 mg/kg |  | elimination rate constant | 7.78e-05 s⁻¹ |
| Cc1cc(C)cc(NC(=O)CN(C)S(=O)(=O)c2ccc3[nH]c4c(c3c2)CCCC4)c1 |  |  | sheep erythrocytes | 1 h, pH 7.5 |  | maximum haemolysis | 2.4% |
| N#Cc1ccc2c(c1)[C@H]1CCCN(C(=O)c3ccc4[nH]cnc4c3)[C@H]1C2 |  |  | human, female | 10 mg, day 7 |  | androstenedione level | 6.3 nmol/L |
| COCc1cc(C(=O)Nc2cc([C@H]3CC[C@@H](OC(=O)NC(C)C)C3)[nH]n2)n(C)n1 |  |  | OVCAR-3 xenograft, NOD/SCID gamma mice, plasma | oral, 125 twice daily, PK/PD study |  | unbound Cmax | 2800 nM |
| COc1ccc2c(=O)n(C)c(-c3ccccc3)nc2c1 |  |  | Sprague-Dawley rat, male, kidney | oral, 30 mg/kg, 0.5 h | relative to: kidney over plasma | tissue/plasma ratio | 3.38 |
| CC(Cl)C(=O)NC1CCCN(S(=O)(=O)N2CCOCC2)C1 (stereo not drawn) | UCHL1 (Homo sapiens, UniProt P09936) | covalent, intact protein LC-MS |  | 12.5 µM |  | labelling | 22.3% |
| CC[C@H](C)[C@H](NC(=O)CN)C(=O)N[C@@H](CC(C)C)C(=O)N[C@@H](C)C(=O)N[C@@H](C)C(=O)N[C@H](C(=O)N[C@@H](CCCCN)C(=O)N[C@@H](C)C(=O)N[C@H](C(=O)N[C@@H](C)C(=O)N[C@@H](CCCCN)C(=O)N[C@@H](C)C(=O)N[C@@H](C)C(=O)NCC(N)=O)[C@@H](C)CC)[C@@H](C)CC |  | circular dichroism at 222 nm | 10 mM SDS | 100 µM, pH 4.0 |  | mean residue ellipticity | -10600 deg cm2/dmol |
| CNC(=O)c1ccc(-c2cnc3ncc(Cc4ccc5ncccc5c4)n3n2)cc1F |  |  | Japanese patients | oral, 400 mg twice daily, grade 3/4 |  | Pancreatitis patients | 6% |
| O=C(N/N=C/c1ccc(-c2ccccc2Cl)o1)c1ccccc1 | Trypanosoma cruzi | reporter translation, Renilla luciferase mRNA translation | cell-free extract | 40 µM | relative to: DMSO | inhibition | -1.4% |
| Cc1cc(C#N)cc(C)c1Oc1nc(Nc2ccc(C#N)cc2)nc(N)c1Br |  | solvent-shift UV | FaSSIF with 0.1% PVP-VA |  |  | maximum supersaturated concentration | 110 µg/mL |

Some of these lines once more:
| Structure (SMILES) | tested on | test | system | conditions | scale | endpoint | result |
| --- | --- | --- | --- | --- | --- | --- | --- |
| [H]/N=C(/N)c1ccc(NCc2nc3cc(C(=O)N(CCC(=O)O)c4ccccn4)ccc3n2C)cc1 |  |  | healthy human, plasma | oral, 75 mg dabigatran etexilate, alone, median |  | Tlast | 36 h |
| C[C@@H](Nc1cc(F)cc(F)c1)c1cc(C(=O)N(C)C)cc2c(=O)cc(N3CCOCC3)oc12 |  | measured: Chills | advanced solid tumour patients | oral, dose not given, dose expansion |  | patients discontinuing for AE | 0% |
| CN(C(=O)n1cnc(-c2ccc[n+]([O-])c2)c1)C1CCCCC1 |  |  | cynomolgus monkey, male, plasma | oral, 1.0 mg/kg |  | t1/2 | 2.4 h |
| COc1ccnc(C(=O)NC(CO)C(=O)O)c1O (racemic) |  |  | water/sediment | 20 °C, whole system, geometric mean, aerobic dark |  | DT50 | 49 days |
